# Experimental data of several laboratories.
# Several values in a cell are separate wells, animals, samples, runs or records. Numbers after ± are the reported error.
# MAP3K13: Mitogen-activated protein kinase kinase kinase 13 (MAP3K13, Homo sapiens, UniProt O43283)
# Sequence of UniProt D0VWV4 (whole entry, looked up): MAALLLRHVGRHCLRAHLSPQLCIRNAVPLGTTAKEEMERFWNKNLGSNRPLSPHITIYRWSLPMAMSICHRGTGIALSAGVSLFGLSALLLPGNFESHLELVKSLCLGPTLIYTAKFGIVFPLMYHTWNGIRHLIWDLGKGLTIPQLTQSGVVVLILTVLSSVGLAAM
# Sequence of UniProt P14618 (whole entry, looked up): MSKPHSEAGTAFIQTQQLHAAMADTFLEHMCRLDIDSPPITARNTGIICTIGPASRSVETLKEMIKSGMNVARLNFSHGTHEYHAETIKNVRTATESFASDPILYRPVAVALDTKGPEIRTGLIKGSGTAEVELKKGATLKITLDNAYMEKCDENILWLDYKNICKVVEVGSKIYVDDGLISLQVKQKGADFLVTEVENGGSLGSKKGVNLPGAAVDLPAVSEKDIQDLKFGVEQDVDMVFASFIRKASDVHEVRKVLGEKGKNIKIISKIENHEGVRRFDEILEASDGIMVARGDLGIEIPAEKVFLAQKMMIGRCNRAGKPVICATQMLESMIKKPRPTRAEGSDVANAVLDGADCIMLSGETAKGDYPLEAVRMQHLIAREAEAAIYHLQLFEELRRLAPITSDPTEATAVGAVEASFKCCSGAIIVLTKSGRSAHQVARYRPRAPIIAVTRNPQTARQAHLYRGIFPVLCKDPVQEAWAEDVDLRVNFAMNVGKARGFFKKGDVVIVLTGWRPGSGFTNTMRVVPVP
# Sequence of UniProt Q007T0 (whole entry, looked up): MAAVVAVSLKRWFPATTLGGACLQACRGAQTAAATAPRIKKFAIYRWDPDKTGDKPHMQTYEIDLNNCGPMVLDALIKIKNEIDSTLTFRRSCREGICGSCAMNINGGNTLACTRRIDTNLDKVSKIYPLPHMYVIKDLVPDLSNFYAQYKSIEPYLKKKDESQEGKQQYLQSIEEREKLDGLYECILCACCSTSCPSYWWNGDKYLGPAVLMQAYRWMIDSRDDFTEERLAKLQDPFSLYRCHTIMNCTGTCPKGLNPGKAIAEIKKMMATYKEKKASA
# Sequence of UniProt A5GZW8 (whole entry, looked up): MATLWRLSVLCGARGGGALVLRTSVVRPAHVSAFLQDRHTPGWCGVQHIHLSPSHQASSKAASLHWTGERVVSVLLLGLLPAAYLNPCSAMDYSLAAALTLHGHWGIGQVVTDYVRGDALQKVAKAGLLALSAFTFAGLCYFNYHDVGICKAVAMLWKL
# Sequence of UniProt P06276 (whole entry, looked up): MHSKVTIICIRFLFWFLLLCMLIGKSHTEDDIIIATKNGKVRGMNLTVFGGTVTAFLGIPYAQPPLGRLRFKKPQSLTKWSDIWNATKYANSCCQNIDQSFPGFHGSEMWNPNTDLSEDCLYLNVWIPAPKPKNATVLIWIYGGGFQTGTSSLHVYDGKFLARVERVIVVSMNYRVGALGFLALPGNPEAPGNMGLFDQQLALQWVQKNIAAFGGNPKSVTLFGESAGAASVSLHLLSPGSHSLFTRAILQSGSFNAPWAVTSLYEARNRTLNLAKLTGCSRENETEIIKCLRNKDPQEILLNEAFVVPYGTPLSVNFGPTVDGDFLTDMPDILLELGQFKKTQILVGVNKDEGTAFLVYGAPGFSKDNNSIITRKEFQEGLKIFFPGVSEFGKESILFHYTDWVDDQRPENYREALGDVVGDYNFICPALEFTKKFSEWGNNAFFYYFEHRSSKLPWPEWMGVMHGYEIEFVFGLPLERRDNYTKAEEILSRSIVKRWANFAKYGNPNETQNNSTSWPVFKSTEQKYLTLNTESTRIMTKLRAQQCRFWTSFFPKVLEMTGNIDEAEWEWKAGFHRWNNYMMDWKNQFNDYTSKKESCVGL
# Sequence of UniProt O43283 (whole entry, looked up): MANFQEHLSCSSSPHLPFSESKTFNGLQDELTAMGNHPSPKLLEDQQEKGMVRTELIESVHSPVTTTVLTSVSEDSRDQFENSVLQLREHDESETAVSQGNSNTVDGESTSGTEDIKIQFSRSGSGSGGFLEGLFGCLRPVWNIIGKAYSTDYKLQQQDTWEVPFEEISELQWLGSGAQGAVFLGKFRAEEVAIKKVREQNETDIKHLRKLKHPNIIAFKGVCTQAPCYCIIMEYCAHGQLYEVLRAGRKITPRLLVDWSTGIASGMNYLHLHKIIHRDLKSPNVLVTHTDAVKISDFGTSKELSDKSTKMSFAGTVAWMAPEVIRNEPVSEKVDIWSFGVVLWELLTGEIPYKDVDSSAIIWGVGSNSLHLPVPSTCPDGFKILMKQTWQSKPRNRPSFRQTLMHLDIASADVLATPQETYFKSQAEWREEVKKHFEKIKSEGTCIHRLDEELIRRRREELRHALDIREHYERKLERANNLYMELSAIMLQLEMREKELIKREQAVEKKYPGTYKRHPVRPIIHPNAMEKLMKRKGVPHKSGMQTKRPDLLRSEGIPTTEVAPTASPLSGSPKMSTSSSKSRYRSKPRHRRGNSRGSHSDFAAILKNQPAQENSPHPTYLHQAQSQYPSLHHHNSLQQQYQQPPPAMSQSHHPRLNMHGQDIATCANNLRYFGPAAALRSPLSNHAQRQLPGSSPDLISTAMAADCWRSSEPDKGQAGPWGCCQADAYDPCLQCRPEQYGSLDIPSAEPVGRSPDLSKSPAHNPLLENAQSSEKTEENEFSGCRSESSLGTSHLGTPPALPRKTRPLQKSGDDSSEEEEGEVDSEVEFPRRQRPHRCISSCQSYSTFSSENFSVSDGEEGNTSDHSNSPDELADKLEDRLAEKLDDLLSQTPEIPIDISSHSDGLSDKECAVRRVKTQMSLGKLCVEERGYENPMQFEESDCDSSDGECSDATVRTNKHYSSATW
# Sequence of UniProt O75116 (whole entry, looked up): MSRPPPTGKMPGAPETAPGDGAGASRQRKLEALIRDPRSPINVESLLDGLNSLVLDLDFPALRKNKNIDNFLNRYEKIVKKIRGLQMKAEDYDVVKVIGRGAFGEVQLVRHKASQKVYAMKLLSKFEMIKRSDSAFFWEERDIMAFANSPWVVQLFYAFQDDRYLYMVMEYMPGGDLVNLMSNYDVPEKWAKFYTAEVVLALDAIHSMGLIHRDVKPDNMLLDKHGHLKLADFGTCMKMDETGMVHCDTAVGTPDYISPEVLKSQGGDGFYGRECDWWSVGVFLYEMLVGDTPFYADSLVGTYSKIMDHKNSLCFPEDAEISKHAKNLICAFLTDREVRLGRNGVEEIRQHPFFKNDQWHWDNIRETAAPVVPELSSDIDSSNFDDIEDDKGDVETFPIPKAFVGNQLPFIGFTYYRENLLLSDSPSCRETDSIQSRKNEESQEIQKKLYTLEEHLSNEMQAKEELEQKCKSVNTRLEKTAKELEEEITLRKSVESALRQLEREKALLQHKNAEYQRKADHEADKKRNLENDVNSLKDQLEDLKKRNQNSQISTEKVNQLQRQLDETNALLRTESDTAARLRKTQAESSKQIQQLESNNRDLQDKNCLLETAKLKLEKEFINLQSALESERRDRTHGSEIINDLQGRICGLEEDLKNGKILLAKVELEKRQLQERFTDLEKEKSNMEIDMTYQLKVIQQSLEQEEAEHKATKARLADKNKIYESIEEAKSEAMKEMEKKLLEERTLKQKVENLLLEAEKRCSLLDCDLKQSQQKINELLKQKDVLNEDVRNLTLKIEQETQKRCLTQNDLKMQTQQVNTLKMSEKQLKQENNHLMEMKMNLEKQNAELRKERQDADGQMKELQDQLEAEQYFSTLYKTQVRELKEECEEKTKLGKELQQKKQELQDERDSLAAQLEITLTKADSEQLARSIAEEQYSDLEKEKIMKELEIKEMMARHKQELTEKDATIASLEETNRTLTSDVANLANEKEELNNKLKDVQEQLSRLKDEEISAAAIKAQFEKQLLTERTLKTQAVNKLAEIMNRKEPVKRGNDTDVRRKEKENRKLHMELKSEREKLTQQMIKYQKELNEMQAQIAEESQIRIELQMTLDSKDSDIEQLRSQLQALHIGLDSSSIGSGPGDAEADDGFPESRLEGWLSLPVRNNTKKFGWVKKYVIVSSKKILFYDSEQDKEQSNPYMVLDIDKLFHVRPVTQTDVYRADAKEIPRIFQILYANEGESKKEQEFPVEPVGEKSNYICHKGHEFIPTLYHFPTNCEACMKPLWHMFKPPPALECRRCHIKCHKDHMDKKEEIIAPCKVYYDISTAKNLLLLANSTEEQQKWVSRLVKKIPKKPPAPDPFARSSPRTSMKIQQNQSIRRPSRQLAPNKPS
# Sequence of UniProt O43242 (whole entry, looked up): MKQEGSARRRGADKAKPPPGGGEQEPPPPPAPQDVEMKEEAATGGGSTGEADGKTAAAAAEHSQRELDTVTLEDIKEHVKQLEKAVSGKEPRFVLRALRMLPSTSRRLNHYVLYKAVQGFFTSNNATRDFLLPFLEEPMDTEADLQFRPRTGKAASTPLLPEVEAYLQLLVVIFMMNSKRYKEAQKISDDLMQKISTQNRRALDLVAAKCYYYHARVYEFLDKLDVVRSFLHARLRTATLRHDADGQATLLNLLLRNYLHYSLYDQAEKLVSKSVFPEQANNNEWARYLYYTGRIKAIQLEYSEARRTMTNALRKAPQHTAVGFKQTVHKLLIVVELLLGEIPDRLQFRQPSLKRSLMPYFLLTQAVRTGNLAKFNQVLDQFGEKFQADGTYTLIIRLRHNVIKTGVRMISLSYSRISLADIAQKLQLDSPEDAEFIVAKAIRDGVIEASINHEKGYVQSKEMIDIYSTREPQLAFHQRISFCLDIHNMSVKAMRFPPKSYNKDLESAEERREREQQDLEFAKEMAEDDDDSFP
# Sequence of UniProt P49146 (whole entry, looked up): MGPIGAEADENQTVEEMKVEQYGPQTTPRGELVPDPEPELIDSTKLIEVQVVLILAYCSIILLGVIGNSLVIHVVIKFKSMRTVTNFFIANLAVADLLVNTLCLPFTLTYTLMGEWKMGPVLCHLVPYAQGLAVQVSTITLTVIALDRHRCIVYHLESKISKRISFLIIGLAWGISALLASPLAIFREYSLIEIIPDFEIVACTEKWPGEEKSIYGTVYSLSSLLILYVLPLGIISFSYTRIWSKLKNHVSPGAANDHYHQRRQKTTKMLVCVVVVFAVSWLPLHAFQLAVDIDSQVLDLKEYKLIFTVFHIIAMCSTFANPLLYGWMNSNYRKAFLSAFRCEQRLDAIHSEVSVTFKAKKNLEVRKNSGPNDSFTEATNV
Compound,target or system,test,system,conditions,how to read,endpoint,result
CO[C@H]1C[C@@H]2CC[C@@H](C)[C@@](O)(O2)C(=O)C(=O)N2CCCC[C@H]2C(=O)O[C@H]([C@H](C)C[C@@H]2CC[C@@H](OC(=O)NCCOCCOCCOCCOCCOCCOCCOCCOCCC(=O)N3CCc4cc(Cn5nc(-c6ccc7oc(N)nc7c6)c6c(N)ncnc65)ccc4C3)[C@H](OC)C2)C[C@@H](O)[C@H](C)/C=C(\C)[C@@H](O)[C@@H](OC)C(=O)[C@H](C)C[C@H](C)/C=C/C=C/C=C/1C,,,patients with advanced solid tumours,"intravenous, 1.6 mg/3 mg weekly, grade ≥3",,incidence of Anemia TEAE,40%
Fc1ccc(Oc2ccnc3cc(Cl)cc(Cl)c23)cc1,"PPARG (Homo sapiens, UniProt P37231)","reporter gene, agonist, β-lactamase reporter",HEK293-H cells,freely dissolved concentration,,EC10,8.14 nM
N#C[Se]CCCCOc1ccc2c(-c3ccccc3)cc(=O)oc2c1,"CA12 (Homo sapiens, UniProt O43570)",stopped-flow CO2 hydration,,,reference: Ki CA II over Ki CA XII,selectivity ratio,> 338
CC(CCc1ccccc1)NC(C)C(O)c1ccc(O)cc1 (centres unmarked),"Cholinesterase (BCHE, Homo sapiens, UniProt P06276)",,,"concentration not given, Triton",,efficacy,-92.2 ± 6.19%
C[C@@H](O)[C@@H](CO)NC(=O)[C@@H](CCCNC(=N)N)NC(=O)[C@@H]1CCCN1C(=O)[C@@H]1CSSC[C@H](NC(=O)[C@H](Cc2ccccc2)NC(=O)CN2CCN(CC(=O)O)CCN(CC(=O)O)CCN(CC(=O)O)CC2)C(=O)N[C@@H](Cc2ccc(O)cc2)C(=O)N[C@@H](Cc2ccccc2)C(=O)N[C@@H](CCC(N)=O)C(=O)N[C@@H](CC(N)=O)C(=O)N1 [gallium-68 labelled],,,"Wistar rat, healthy, urinary bladder","intravenous, 8 MBq, 60 min",,tissue uptake,2.03 %ID/g
O=C(Nc1cnccc1Cl)N1CCN(Cc2ccc3c(c2)OC(F)(F)O3)CC1,"HTR4 (Cavia porcellus, UniProt O70528)",radioligand binding,,"10 µM, with: [3H]GR-113808",,inhibition of binding,-5%
CN1CCN(c2cc(-c3ccncc3)c(-c3ccc4ccccc4c3)nn2)CC1,"NPY2R (Homo sapiens, UniProt P49146)","agonist, FLIPR",,12.5 µM,,activation,0.8%
[2H]c1c([2H])c([C@]2([2H])CCCN2C(=O)C(C)(C)Oc2ccc3cn[nH]c3c2)c([2H])c([2H])c1C([2H])([2H])[2H],MAP3K13,KINOMEscan,,1 µM,reference: DMSO control,remaining binding,87%
CC[C@H](C)[C@H](NC(=O)[C@H](Cc1ccccc1)NC(=O)[C@H](CCC(=O)O)NC(=O)[C@H](CCCNC(=N)N)NC(=O)[C@H](C)NC(=O)[C@H](C)NC(=O)[C@H](CCC(N)=O)NC(=O)[C@H](CCC(=O)O)NC(=O)[C@H](CCC(=O)O)NC(=O)[C@H](CC(C)C)NC(=O)[C@H](Cc1ccc(O)cc1)NC(=O)[C@H](CO)NC(=O)[C@H](CO)NC(=O)[C@@H](NC(=O)[C@H](CC(=O)O)NC(=O)[C@H](CO)NC(=O)[C@@H](NC(=O)[C@H](Cc1ccccc1)NC(=O)[C@@H](NC(=O)CNC(=O)[C@H](CCC(=O)O)NC(=O)[C@H](C)NC(=O)CCc1c[nH]cn1)[C@@H](C)O)[C@@H](C)O)C(C)C)C(=O)N[C@@H](C)C(=O)N[C@@H](Cc1c[nH]c2ccccc12)C(=O)N[C@@H](CC(C)C)C(=O)N[C@H](C(=O)N[C@@H](CCCNC(=N)N)C(=O)NCC(=O)N[C@@H](CCCNC(=N)N)C(=O)N[C@@H](CCCCNC(=O)COCCOCCNC(=O)COCCOCCNC(=O)CC[C@H](NC(=O)CCCCCCCCCCCCCCCCC(=O)O)C(=O)O)C(=O)NCC(=O)NCC(=O)N[C@@H](CO)C(=O)N[C@@H](CCCCNc1c(NCCCCCN(O)C(=O)CCC(=O)NCCCCCN(O)C(=O)CCC(=O)NCCCCCN(O)C(C)=O)c(=O)c1=O)C(=O)O)C(C)C [zirconium-89 labelled],,gamma counting,"rat, stomach-duodenum","subcutaneous, 3 nmol/kg, 168 h",,tissue uptake,0.28 %ID/g
CC1=C(C(=O)O)N2C(=O)[C@@H](NC(=O)[C@H](N)c3ccccc3)[C@H]2SC1,"Penicillin-binding protein 2B (Streptococcus pneumoniae, UniProt P0A3M6)",inhibitor,,,,kinact/KI,4 ± 2.7 M⁻¹ s⁻¹
Nc1nc2c(ncn2[C@@H]2O[C@@H]3COP(=O)(O)O[C@H]4[C@@H](O)[C@H](n5cnc6c(=O)[nH]c(N)nc65)O[C@@H]4COP(=O)(O)O[C@H]3[C@H]2O)c(=O)[nH]1,"Cell cycle histidine kinase CckA, G318A; cytoplasmic region (Caulobacter vibrioides, UniProt Q9X688, G318A)","binding, ITC",,with: ADP 5 mM,,ΔS,23.4 cal/mol/K
CC(=O)c1c(O)c(C)c(O)c(Cc2c(O)c3c(c(C(=O)/C=C/c4ccccc4)c2O)OC(C)(C)C=C3)c1O,"TGM2 (Homo sapiens, UniProt P21980)","enzyme activity, inhibitor",,with: Triton X-100 0.02%,,potency,decreased
C[C@@H]1CC[C@H]2[C@@H](C)C(=O)O[C@@H]3O[C@@]4(C)CC[C@@H]1[C@]32OO4,Plasmodium falciparum,,HB3,,,IC50,25 nM
CCOC(=O)COc1ccc2c(=O)c3ccccc3oc2c1,"ache (Electrophorus electricus, UniProt O42275)",enzyme activity,,"0.42 µM, with: substrate 1.73 mM",higher = faster reaction,reaction velocity,0.0019 a.u.
CC(C)[C@@H](O)CC[C@@H](C)[C@H]1CC[C@H]2[C@@H]3CC=C4C[C@@H](O)CC[C@]4(C)[C@H]3CC[C@]12C,"Glutamate NMDA receptor; GRIN1/GRIN2B (GRIN1/GRIN2B, Homo sapiens, UniProt Q05586+Q13224, F563A)","positive allosteric modulator, two-electrode voltage clamp",Xenopus oocytes expressing GluN2B-F563A,"10 µM, 0.02% cremophor, with: 100 µM glutamate and glycine",reference: without compound,current response,318 ± 17%
CC(=O)O[C@H]1C[C@@H]2CC[C@@H]3[C@H](CC[C@@]4(C)[C@H]3C[C@H]([N+]3(C)CCCCC3)[C@@H]4OC(C)=O)[C@@]2(C)C[C@@H]1N1CCCCC1,"Cholinesterase (BCHE, Homo sapiens, UniProt P06276)",,,"concentration not given, Triton",,efficacy,-98.4 ± 12.6%
Nc1ccn([C@H]2C[C@H](O)[C@@H](COP(=O)(O)OP(=O)(O)OP(=O)(O)O)O2)c(=O)n1,"Gag-Pol polyprotein, reverse transcriptase (gag-pol, Human immunodeficiency virus type 1 group M subtype B, UniProt P04585, K653T)","nucleotide misincorporation, steady-state kinetics",,"K66T RT, with: matched template/primer, template T",,kcat,0.134 ± 0.0255 s⁻¹
CC[C@]1(O)C[C@H]2CN(CCc3c([nH]c4ccccc34)[C@@](C(=O)OC)(c3cc4c(cc3OC)N(C=O)[C@H]3[C@@](O)(C(=O)OC)[C@H](OC(C)=O)[C@]5(CC)C=CCN6CC[C@]43[C@@H]65)C2)C1,Plasmodium falciparum,,W2,,,IC50,50.1 nM
CCCN(CCc1cccs1)[C@H]1CCc2c(O)cccc2C1,"Cholinesterase (BCHE, Homo sapiens, UniProt P06276)",,,"concentration not given, Triton",,efficacy,-94.3 ± 6.96%
NC(=O)N/N=C/c1ccc([N+](=O)[O-])o1,"nfsB (Escherichia coli K-12, UniProt P38489, K14E)",,,"pH 7.0, 37 °C, with: 110 µM NADPH",,kcat,< 0.03 s⁻¹
CC[C@@H](C)[C@@H](NC(=O)[C@@H](Cc1ccc(O)cc1)NC(=O)[C@H]1CCCN1C(=O)[C@@H](CCCNC(=N)N)NC(=O)[C@H](N)Cc1c[nH]cn1)C(=O)N[C@H](C)C(=O)N[C@H](Cc1c[nH]cn1)C(=O)N[C@H](CCCNC(=N)N)C(=O)N[C@H](CCCCNC(=O)c1cccc(S(=O)(=O)F)c1)C(=O)N[C@H](Cc1ccc(O)cc1)C(=O)N[C@H](CO)C(=O)N[C@H](Cc1ccccc1)C(N)=O,"Transferrin receptor protein 1 (Tfrc, Mus musculus, UniProt Q62351)",flow cytometry,DC2.4,"48 h, pH 7.4, unit not given",reference: 0 h,surface TFRC expression,0.489
COc1ncccc1-c1cnn2ccc(N3CCN(C(=O)OC(C)C)CC3)nc12,"Tyrosine-protein kinase ABL1, phosphorylated (ABL1, Homo sapiens, UniProt P00519)",KINOMEscan,,1 µM,,remaining binding,100%
COc1cc(Nc2ncc(F)c(Nc3ccc4c(n3)NC(=O)C(C)(C)O4)n2)cc(OC)c1OC,MAP3K13,KINOMEscan,,"10 µM, LZK",,inhibition,22%
C=C(CN(C(=O)c1c(C(F)F)nn(C)c1F)C1CC1)c1ccc(Cl)cc1Cl,"SDHD/SDHC/SDHB (Sus scrofa, UniProt A5GZW8+D0VWV4+Q007T0)","enzyme activity, inhibitor, DCIP reduction",pig,"0.2 µM, with: DCIP 120 µM",,reaction velocity,0.0214 µM/s and 0.0194 µM/s and 0.0195 µM/s
O=C(c1ccc(Cl)cc1)N1CCN2C(=O)N(OC(=O)N3CCOc4ccccc43)C(=O)C2C1 (centres unmarked),"Pyruvate kinase PKM (PKM, Homo sapiens, UniProt P14618)",MS-based ABPP,SW-620 conditioned medium,"10 µM, 1 h, 37 °C","reference: compound over DMSO, lower = more inhibition",peptide ratio,1.44 and 1.32 and 1.51 and 1.33
CN(C(=O)n1cnc(-c2ccc[n+]([O-])c2)c1)C1CCCCC1,"HCRTR2 (Homo sapiens, UniProt O43614)",radioligand binding,,50 µM,,inhibition,11%
CC[C@H](C)[C@@H]1NC(=O)[C@@H]2CCCN2C(=O)[C@H](CC(C)C)NC(=O)[C@H](CC(C)C)NC(=O)CNC(=O)[C@@H](NC(=O)[C@@H](NC(=O)[C@H](CC(=O)O)NC(=O)CNC(=O)[C@@H](NC(=O)[C@H](C)NC(=O)CNC(=O)[C@H](CCCCN)NC(=O)[C@H](CC(C)C)NC(=O)[C@H](CC(C)C)NC(=O)[C@H](CCCCN)NC(=O)CNC(=O)[C@@H](NC(=O)[C@@H](N)CC(C)C)C(C)C)C(C)C)C(C)C)CSSC[C@@H](C(=O)O)NC1=O,,"RNA-seq, item: Fam129a","mouse, traumatic brain injury model, frontal cortex and hippocampus",dose not given,reference: TBI alone,log2 fold change,-1.49
C[C@H]1CN(c2n[nH]c3nc(N[C@H]4CC[C@H](NS(=O)(=O)CCC(F)(F)F)CC4)ncc23)CCO1,"PSMD3 (Homo sapiens, UniProt O43242)","inhibitor, Kinobeads competition profiling",,20 µM,reference: vehicle,relative abundance,1.25
Clc1ccc(Cl)c(-c2ccccc2Cl)c1,"Androgen receptor (AR, Homo sapiens, UniProt P10275)","reporter gene, antagonist",,"40 µM, with: DHT 2 nM",reference: DHT 2 nM,maximum activity,28%
COc1cc(N)c(Cl)cc1C(=O)NC1CN2CCC1CC2 (centres unmarked),"Trace amine-associated receptor 6 (TAAR6, Homo sapiens, UniProt Q96RI8)","β-arrestin recruitment, TANGO luminescence, item: TAAR6",,concentration not given,reference: basal luminescence,log2 fold change,-0.161
CCN(C)C(=O)Oc1ccc(/C=C/C(=O)NC2CCN(Cc3ccccc3)CC2)cc1,"Cholinesterase (BCHE, Equus caballus, UniProt P81908)",Ellman,equine serum BuChE,,reference: AChE IC50 over BuChE IC50,selectivity ratio,0.1
COc1cc2c(Oc3ccc4[nH]c(C)cc4c3F)ccnc2cc1OCC1(N)CC1,,,paediatric recurrent refractory sarcoma,8 mg,,grade 3 Hyperuricemia,0%
O=C(Nc1cccnn1)N1CCC(=Cc2cccc(Oc3ccc(C(F)(F)F)cn3)c2)CC1,"GABAA receptor chloride channel, rat",binding,,"50 µM, with: [3H]TBOB",,inhibition,104%
C[C@H]1COCCN1c1nc(NCc2cccnc2C(F)(F)F)c2cccnc2n1,"ROCK2 (Homo sapiens, UniProt O75116)",inhibitor,,,,IC50,> 100000 nM
COc1ccc(N2C(=O)N(c3c(C)cccc3Cl)Cc3cnc(Nc4ccc(C5CCN(C)CC5)cc4OC)nc32)nc1,"PRKCH (Homo sapiens, UniProt P24723)","kinase activity, inhibitor",,"0.5 µM, kinase PKC-ETA",,inhibition,4%

# Excerpt of the above:
Compound,target or system,test,system,conditions,how to read,endpoint,result
C[C@@H](O)[C@@H](CO)NC(=O)[C@@H](CCCNC(=N)N)NC(=O)[C@@H]1CCCN1C(=O)[C@@H]1CSSC[C@H](NC(=O)[C@H](Cc2ccccc2)NC(=O)CN2CCN(CC(=O)O)CCN(CC(=O)O)CCN(CC(=O)O)CC2)C(=O)N[C@@H](Cc2ccc(O)cc2)C(=O)N[C@@H](Cc2ccccc2)C(=O)N[C@@H](CCC(N)=O)C(=O)N[C@@H](CC(N)=O)C(=O)N1 [gallium-68 labelled],,,"Wistar rat, healthy, urinary bladder","intravenous, 8 MBq, 60 min",,tissue uptake,2.03 %ID/g
O=C(Nc1cnccc1Cl)N1CCN(Cc2ccc3c(c2)OC(F)(F)O3)CC1,"HTR4 (Cavia porcellus, UniProt O70528)",radioligand binding,,"10 µM, with: [3H]GR-113808",,inhibition of binding,-5%
